Measurements of several laboratories.
Numbered parts are unrelated; each lists some results of a single study.

Series 1 — technique: protein binding microarray; form: double-stranded DNA, one strand shown; matrix: in vitro; concentration: not given; relative to: not given; direction: higher = stronger binding; quantity: E-score
Target: Histone acetyltransferase KAT6A, both winged helices, GST fusion (KAT6A, Homo sapiens, UniProt Q92794, residues 1-181)
Notes: 8-mer, flanks averaged, mean of 2 arrays, mostly near background
Residues (chain): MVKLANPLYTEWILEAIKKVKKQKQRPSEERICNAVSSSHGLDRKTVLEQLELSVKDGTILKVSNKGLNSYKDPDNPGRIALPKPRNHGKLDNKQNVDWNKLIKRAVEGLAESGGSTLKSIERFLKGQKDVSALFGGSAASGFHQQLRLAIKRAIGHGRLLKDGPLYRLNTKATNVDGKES
CATCCTAC: -0.124
CCAACTCG: -0.158
CTCGCGAG: 0.193
AGATTTAT: -0.00289
ATCCCTAC: -0.0976
CCCCGGGC: 0.168
ACCTGGGG: -0.197
TTGCGCAA: 0.245
AAGGGTGG: -0.208
GAACGAGA: 0.0256
GGTTGCAA: -0.00556
CGAACTAC: -0.0353
AAAATCGG: -0.0367
CCCTGAGC: -0.0356
AATGCGTC: 0.144
GAGAAATA: -0.0121
CATTACGG: 0.165
CCTGGGTC: -0.0414
ACTATTGC: 0.0788
CTACAGTC: -0.111
CCACTGAG: -0.167
CGCTATCC: 0.144

Series 2 — technique: RNA Bind-n-Seq; form: RNA; matrix: in vitro; concentration: 1 µM; notes: whole 134-nt RNA, ends assumed; together with: 150 mM KCl; relative to: input library; direction: higher = stronger binding; quantity: log2 enrichment
Target: Ras GTPase-activating protein-binding protein 1, C-terminal RGG region (G3BP1, Homo sapiens, UniProt Q13283)
Sequence of UniProt Q13283 (whole entry, looked up): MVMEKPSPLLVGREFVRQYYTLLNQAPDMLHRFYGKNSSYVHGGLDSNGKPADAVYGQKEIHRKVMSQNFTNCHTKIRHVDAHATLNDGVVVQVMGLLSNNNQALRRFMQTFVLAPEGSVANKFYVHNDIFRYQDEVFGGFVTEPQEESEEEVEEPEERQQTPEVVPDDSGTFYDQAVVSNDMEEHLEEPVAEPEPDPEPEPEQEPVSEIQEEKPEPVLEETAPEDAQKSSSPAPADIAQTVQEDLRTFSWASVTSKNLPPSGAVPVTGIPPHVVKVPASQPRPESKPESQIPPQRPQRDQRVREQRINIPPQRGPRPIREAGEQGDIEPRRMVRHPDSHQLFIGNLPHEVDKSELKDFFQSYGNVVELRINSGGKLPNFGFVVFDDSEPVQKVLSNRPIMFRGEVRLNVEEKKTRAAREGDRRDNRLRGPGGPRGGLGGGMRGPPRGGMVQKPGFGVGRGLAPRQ
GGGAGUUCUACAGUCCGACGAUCAGUCCUGUGCUACACAUCGUAUGUACCGAAUCAAAUUUAAACCCAAAUUUUUUUAAAAAAGUAUUAUGUUACGCCGUUCGGAUCUGCACUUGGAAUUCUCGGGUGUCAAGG: -1.31
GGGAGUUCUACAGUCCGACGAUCUGGCCCUGGUGGCAUGCGGGGAGGAAGAGGUGGCCUCAUGGAUCGUGGUGGUCCCGGUGGAAUGUUCAGAGGUGGCCGUGAUGGAGACAGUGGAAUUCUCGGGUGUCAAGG: 3
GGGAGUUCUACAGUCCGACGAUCUUUGGUUAUGAACAGGAUUCGGAUUCACGUCUUGCCAACCAAUCGGGGGAGGAUCACUCCAGUGCCCAGGUCUCAGGAACCUCUGUCUUGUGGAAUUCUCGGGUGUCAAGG: -0.352
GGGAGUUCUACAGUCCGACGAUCCUCAAGUCCUGUGCUACACAUCGUAUGUACCGAAUCGGGGUUGGUUGGUUGGGGAAAGUAUUAUGUUACGCCGUUCGGAUCUGCACUUCCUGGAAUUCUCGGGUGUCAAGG: -0.582
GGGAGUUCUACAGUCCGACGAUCCUCAAGUCCUGUGCUACACAUCGUAUGUACCGAAUCGGGGCCGGCCGGGCCGGAAAGUAUUAUGUUACGCCGUUCGGAUCUGCACUUCCAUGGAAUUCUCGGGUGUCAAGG: -1.04
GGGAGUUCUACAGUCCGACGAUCUGUGCUACACAUCGUAUGUACCGAAUCGGGGCCCCCCCGGGGCCCCCCCGGGCCCCCCCGGGGAAAGUAUUAUGUUACGCCGUUCGGAUCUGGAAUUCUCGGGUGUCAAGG: -2.72
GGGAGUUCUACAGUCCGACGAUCUCAAGUCCUGUGCUACACAUCGUAUGUACCGAAUCGGGUUUGGGAGGGUUUGGGAAAGUAUUAUGUUACGCCGUUCGGAUCUGCACUUCCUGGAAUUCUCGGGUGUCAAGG: 2.08
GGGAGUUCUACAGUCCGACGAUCUGGGAGGUGGAUUUUGUUUAUUUUUUUAGCUCAUUUCCAGGGGUGGGAAUUUUUUUUUAAUAUGUGUCAUGAAUACAGUUGUUUUUGAAAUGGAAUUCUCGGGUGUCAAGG: 2.9
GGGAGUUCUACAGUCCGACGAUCAGUGGGUUUGUUGAAGCAGUUGCUGGUGCAACAGCUAGGUUUGACUGAGAAGAGCGUUCAGGAAGACUGGCAACAUUUCCCAAGAUACAGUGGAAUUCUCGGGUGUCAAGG: -1.97
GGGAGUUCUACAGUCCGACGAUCCACAGACAACACGCACCCACACAGACACAGAGGGAAGGGGUUGGGAUGGGGACAGGGUGCACAGCAGGUCGGGGUAGGACCCCAGCCCCUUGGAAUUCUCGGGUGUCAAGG: -1.52
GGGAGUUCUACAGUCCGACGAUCUCCUGUGCUACACAUCGUAUGUACCGAAUCGGGGUUUUUUUGGGGUUUGGGGAAAGGGGAAAGUAUUAUGUUACGCCGUUCGGAUCUGCAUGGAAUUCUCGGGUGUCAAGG: 1.99
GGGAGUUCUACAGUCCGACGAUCAAGUCCUGUGCUACACAUCGUAUGUACCGAAUCGGUUUUGGGGUUUUGGGUUUUGGAAAGUAUUAUGUUACGCCGUUCGGAUCUGCACUUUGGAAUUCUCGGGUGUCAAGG: -1.15
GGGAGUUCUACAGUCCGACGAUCUGGCCCUGGUGGCAUGCGGGGAGGAAGAGGUGGCCUCAUGGAUCGUGGUGGUCCCGGUGGAAUGUUAAGAGGUGGCCGUGGUGGAGACAGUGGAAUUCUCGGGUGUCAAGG: 3.51
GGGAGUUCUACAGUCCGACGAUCAGUCCUGUGCUACACAUCGUAUGUACCGAAUCGGGGAAAGGGGUGGGGUUUUUGGGGAAAGUAUUAUGUUACGCCGUUCGGAUCUGCACUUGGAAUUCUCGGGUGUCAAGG: 1.44

Series 3 — technique: RNAcompete; form: RNA; matrix: in vitro; concentration: 20 nM; notes: 7-mer, probes averaged, single round; relative to: mean of 7-mers; direction: higher = stronger binding; quantity: 7-mer Z-score
Target: PABPC1L2, full length, GST fusion (mouse, UniProt A0ABA7IW68)
Residues (chain): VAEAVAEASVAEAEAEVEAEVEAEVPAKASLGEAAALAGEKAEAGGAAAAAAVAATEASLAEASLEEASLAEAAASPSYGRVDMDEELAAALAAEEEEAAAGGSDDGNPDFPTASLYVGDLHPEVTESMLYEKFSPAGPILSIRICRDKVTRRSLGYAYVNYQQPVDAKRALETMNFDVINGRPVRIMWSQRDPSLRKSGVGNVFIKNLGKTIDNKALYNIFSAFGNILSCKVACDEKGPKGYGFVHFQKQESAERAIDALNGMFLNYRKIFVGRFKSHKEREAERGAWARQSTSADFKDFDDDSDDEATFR
CGUGUGU: -0.364
CGACUAU: -0.142
CGGCAGC: 0.0243
ACGUAAA: 0.675
UUAGUUG: -0.298
GCUUUGA: -0.253
ACGGAGU: -0.0464
CGCAGUG: -0.159
GAAUACC: -0.17
AACUUUG: -0.139
GCCGUGC: -0.306
CCUCCUA: -0.318
AUACCCG: -0.211
AAUGCUU: 0.0134
UGGCGAU: -0.0863
UACGACA: -0.0446
ACCACAU: -0.00833
GGAGAGG: 0.309
CCCAGUG: -0.128
AUGUCUG: -0.15
CACUGCA: -0.0772
AAGCCAC: -0.151
CAUCGUC: -0.353
ACCCUAC: -0.182

Single results of other studies
PhoQ, residues 284 288 289 292 302 303 TSTLRA — fold induction (PhoP, residues 12 14 15 18 19 AYFRS (Escherichia coli, UniProt P23836); Sort-seq, refers to: YFP reporter; E. coli; PhoQ-PhoP variant library, together with: 10 µM Mg2+; relative to: high Mg2+ state, higher = stronger signaling): 7.02

A few entries again (series 3):
CAUCGUC: -0.353
CCCAGUG: -0.128
GGAGAGG: 0.309
UGGCGAU: -0.0863
ACGGAGU: -0.0464
CGGCAGC: 0.0243
GCCGUGC: -0.306
CGCAGUG: -0.159
ACGUAAA: 0.675
